Measured values of several laboratories.
Every numbered part comes from another study and shows a few of its results, in no order.

Study 1 — technique: protein binding microarray; form: double-stranded DNA, one strand shown; sample: in vitro; concentration: not given; reference: not given; direction: higher = stronger binding
Target: Histone acetyltransferase KAT6A, both winged helices, GST fusion (KAT6A, Homo sapiens, UniProt Q92794, residues 1-181)
Setting: 8-mer, flanks averaged, mean of 2 arrays, mostly near background
Residues (chain): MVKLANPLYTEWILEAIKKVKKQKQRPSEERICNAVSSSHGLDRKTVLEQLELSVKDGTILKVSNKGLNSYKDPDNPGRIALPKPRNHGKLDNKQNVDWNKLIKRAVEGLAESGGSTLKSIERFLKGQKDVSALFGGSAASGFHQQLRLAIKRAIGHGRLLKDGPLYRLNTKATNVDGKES
`GAAACATC` has an E-score of 0.0453.
The E-score of `GATCCAGC` is reported as -0.145.
With `CGGGCTTA` the E-score was 0.145.
The E-score of `CCTCGTAA` is reported as -0.00389.
The E-score of `AGTGGGAT` is reported as -0.159.
With `CTACGATC` the E-score was -0.051.
For `CTAGGCCC`, the E-score was -0.0782.
`TTAGCAAA` has an E-score of -0.0845.
`CGTCAAGA` gave an E-score of -0.0465.

Study 2 — technique: protein-binding microarray; form: double-stranded DNA, one strand shown; sample: in vitro; concentration: not given; direction: higher = stronger binding
Target: Protein C-ets-1 (ETS1, Homo sapiens, UniProt P14921, residues 1-441, full length assumed)
UniProt P14921, sequence (whole entry, looked up): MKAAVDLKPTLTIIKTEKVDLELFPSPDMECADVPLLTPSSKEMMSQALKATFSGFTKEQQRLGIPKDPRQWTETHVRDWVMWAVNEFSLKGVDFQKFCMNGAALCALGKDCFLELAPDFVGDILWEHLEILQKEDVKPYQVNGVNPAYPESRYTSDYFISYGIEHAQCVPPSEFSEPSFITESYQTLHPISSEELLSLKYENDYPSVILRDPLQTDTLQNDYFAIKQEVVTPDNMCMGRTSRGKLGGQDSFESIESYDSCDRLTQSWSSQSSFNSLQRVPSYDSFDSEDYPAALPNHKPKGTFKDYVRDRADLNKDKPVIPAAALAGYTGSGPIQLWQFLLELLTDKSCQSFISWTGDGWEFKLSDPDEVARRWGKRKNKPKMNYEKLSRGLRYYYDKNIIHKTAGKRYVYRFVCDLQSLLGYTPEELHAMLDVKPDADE
Setting: k-mer, scored over probes, only values ≥0.25
`GGAAGGAA` has an E-score of 0.412.
With `TCCGCACA` the E-score was 0.334.
The E-score of `AACGGATA` is reported as 0.428.
With `CCGGGTAC` the E-score was 0.31.
The E-score of `ATTTCCCA` is reported as 0.26.
The E-score of `ATCCGCCC` is reported as 0.417.
`CTCCGGTC` has an E-score of 0.294.
The E-score of `ACACTTCC` is reported as 0.464.

Study 3 — technique: universal PBM; form: double-stranded DNA, one strand shown; sample: in vitro; concentration: 600 nM; direction: higher = stronger binding
Target: Sal-like protein 4, full length isoform A (SALL4, Homo sapiens, UniProt Q9UJQ4, residues 1-1053)
UniProt Q9UJQ4, sequence (whole entry, looked up): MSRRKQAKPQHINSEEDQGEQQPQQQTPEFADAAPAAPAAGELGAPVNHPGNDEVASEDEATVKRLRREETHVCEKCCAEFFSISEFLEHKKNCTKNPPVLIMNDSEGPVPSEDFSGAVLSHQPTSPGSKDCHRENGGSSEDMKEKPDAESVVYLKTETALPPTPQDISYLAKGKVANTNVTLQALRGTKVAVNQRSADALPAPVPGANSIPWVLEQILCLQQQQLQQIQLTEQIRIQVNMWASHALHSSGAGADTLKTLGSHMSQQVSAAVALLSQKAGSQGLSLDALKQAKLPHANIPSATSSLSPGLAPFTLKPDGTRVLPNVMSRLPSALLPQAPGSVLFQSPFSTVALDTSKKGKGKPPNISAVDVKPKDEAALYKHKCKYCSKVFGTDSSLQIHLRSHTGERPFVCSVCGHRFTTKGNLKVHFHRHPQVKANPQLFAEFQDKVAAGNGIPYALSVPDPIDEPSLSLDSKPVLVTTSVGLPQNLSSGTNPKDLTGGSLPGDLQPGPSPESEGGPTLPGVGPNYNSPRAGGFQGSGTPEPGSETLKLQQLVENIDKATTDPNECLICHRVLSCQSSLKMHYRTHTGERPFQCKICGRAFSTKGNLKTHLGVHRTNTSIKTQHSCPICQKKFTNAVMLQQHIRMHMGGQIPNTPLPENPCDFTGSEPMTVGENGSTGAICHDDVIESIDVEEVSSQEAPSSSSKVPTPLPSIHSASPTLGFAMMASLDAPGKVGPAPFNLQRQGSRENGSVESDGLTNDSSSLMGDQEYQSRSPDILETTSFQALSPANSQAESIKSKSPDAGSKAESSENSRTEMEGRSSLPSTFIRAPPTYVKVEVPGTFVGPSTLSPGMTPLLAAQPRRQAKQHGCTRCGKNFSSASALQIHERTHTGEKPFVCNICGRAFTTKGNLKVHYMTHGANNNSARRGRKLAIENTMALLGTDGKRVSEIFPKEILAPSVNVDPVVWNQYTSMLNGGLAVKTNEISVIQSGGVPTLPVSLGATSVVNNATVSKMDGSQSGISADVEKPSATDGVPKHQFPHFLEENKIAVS
Setting: 8-mer, flanks averaged, mean of replicates
`CTTCGGGA` gave an E-score of -0.0735.
With `CACGGTGC` the E-score was -0.241.
For `CAAGGGCA`, the E-score was -0.182.
The E-score of `GGTAATCA` is reported as 0.0598.
For `CAACTGAC`, the E-score was -0.0661.
The E-score of `CATATCGC` is reported as 0.118.

Other studies, line by line
For `PhoQ, residues 284 288 289 292 302 303 QWQEDG`, the fold induction was 16.6 (PhoP, residues 12 14 15 18 19 TQAIL (Escherichia coli, UniProt P23836); Sort-seq, item: YFP reporter; E. coli; PhoQ-PhoP variant library, with: 10 µM Mg2+; reference: high Mg2+ state, higher = stronger signaling).

A few entries again (study 2):
With `TCCGCACA` the E-score was 0.334.
The E-score of `AACGGATA` is reported as 0.428.
With `CCGGGTAC` the E-score was 0.31.
The E-score of `ATTTCCCA` is reported as 0.26.
